Experimental data gathered from unrelated publications.
± gives the spread as reported.
Target: Cytochrome P450 1A2 (CYP1A2, Homo sapiens, UniProt P05177)
UniProt P05177, sequence (whole entry, looked up): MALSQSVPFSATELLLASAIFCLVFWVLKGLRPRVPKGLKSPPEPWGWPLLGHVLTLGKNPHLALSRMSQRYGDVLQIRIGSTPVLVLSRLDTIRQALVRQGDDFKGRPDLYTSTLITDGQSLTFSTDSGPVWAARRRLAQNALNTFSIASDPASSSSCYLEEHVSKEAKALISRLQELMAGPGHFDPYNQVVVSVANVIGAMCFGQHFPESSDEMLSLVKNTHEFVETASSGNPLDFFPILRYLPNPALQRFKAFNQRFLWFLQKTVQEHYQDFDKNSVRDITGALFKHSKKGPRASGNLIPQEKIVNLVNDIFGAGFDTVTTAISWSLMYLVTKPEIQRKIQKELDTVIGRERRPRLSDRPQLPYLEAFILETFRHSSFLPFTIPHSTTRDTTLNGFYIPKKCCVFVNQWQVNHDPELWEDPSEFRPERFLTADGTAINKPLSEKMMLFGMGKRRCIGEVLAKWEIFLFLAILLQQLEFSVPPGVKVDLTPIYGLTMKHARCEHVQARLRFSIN

| SMILES | assay | test system | setting | endpoint | result |
| --- | --- | --- | --- | --- | --- |
| CC(C)=CCc1c(O)cc(O)c2c1O[C@H](c1ccc(O)cc1)CC2=O | enzyme activity, inhibitor |  | 10 µM, pH 7.4 | inhibition | 88.4 ± 1.6% |
| C=CC(=O)Nc1cc(Nc2nccc(-c3cn(C)c4ccccc34)n2)c(OCC(F)(F)F)nc1N(C)CCNC | substrate depletion | recombinant human CYP | 1 µM | intrinsic clearance | 0.56 µL/min/pmol |
| Cc1ccc2c(c1)C(=O)[C@]1(O)CCN(c3ccc4nc(C)ccc4c3)C1=N2.Cl | metabolic stability | recombinant CYP isoform |  | half-life | 0.663 h |
| C[C@H]1CN(C2COC2)CCN1c1ccc(Nc2cc(-c3ccnc(N4CCn5c(cc6c5CC(C)(C)C6)C4=O)c3CO)cn(C)c2=O)nc1 | substrate | recombinant enzyme | 1 µM, 60 min | remaining compound | 97.2 ± 12.2% |
| Cn1c(=O)c2c(ncn2C)n(C)c1=O |  | human, plasma | oral, 200 mg, day 1, alone, geometric mean | half-life | 4.67 h |
| O=c1cc(-c2ccccc2)oc2ccc(O)cc12 | LC-MS/MS, measured: acetaminophen | human liver microsomes | 10 µM, 30 min, pH 7.4, together with: 50 µM phenacetin | remaining activity | 24.5 ± 0.41% |
| COc1cc(O)c(CC=C(C)C)c(O)c1C(=O)/C=C/c1ccc(O)cc1 | enzyme activity, inhibitor | human liver microsomes | 1 µM, pH 7.4, together with: phenacetin | inhibition | < 10% |
| Nc1ccc2c(c1)CN1C(=O)c3ccccc3C1=N2 | substrate | recombinant human CYP1A2 microsomes | 10 µM, 120 min, together with: NADPH | metabolised fraction | 8.4% |
| COc1c(-c2ccccc2)oc2ccccc2c1=O | LC-MS/MS, measured: acetaminophen | human liver microsomes | 10 µM, 30 min, pH 7.4, together with: 50 µM phenacetin | remaining activity | 12 ± 0.41% |
| C=CC(=O)N1C[C@H](Nc2ncnc3[nH]ccc23)CC[C@@H]1C | time-dependent inhibitor | human liver microsomes |  | kinact | 0.00153 s⁻¹ |
| O=c1c(O)c(-c2ccccc2)oc2cc(O)ccc12 | LC-MS/MS, measured: acetaminophen | human liver microsomes | 10 µM, 30 min, pH 7.4, together with: 50 µM phenacetin | remaining activity | 14 ± 0.12% |
| CN(C(=O)n1cnc(-c2ccc[n+]([O-])c2)c1)C1CCCCC1 | enzyme activity, inhibitor | pooled human liver microsomes | 0.1 to 30 µg/mL | inhibition | no effect |
| N#C[C@H](C[C@@H]1CCCNC1=O)NC(=O)[C@H](CC1CC1)NC(=O)c1cc2cccc(Cl)c2[nH]1 | NADPH metabolic stability |  | 2 µM, pH 7.4, 100 pmol/mL enzyme | intrinsic clearance | < 0.054 µL/min/pmol |
| COc1cc(O)c(CC=C(C)C)c2c1C(=O)CC(c1ccc(O)cc1)O2 (centres unmarked) | enzyme activity, inhibitor | human liver microsomes | 10 µM, pH 7.4, together with: phenacetin | inhibition | 48.2 ± 4.6% |
| Cn1c(=O)c2c(ncn2C)n(C)c1=O | measured: paraxanthine | human, plasma | oral, 50 mg caffeine, day 1, cocktail with binimetinib and encorafenib | AUC(0-t) | 6480 ng·h/mL |
| CC(C)=CCc1c(O)cc2c(c1O)C(=O)C[C@@H](c1ccc(O)cc1)O2 |  |  | 1 µM, pH 7.4 | inhibition | < 10% |
| COc1ccc2oc(-c3ccccc3)cc(=O)c2c1 | LC-MS/MS, measured: acetaminophen | human liver microsomes | 10 µM, 30 min, pH 7.4, together with: 50 µM phenacetin | remaining activity | 35.11 ± 0.12% |

Some of these lines once more:
| SMILES | assay | test system | setting | endpoint | result |
| --- | --- | --- | --- | --- | --- |
| O=c1cc(-c2ccccc2)oc2ccc(O)cc12 | LC-MS/MS, measured: acetaminophen | human liver microsomes | 10 µM, 30 min, pH 7.4, together with: 50 µM phenacetin | remaining activity | 24.5 ± 0.41% |
| Nc1ccc2c(c1)CN1C(=O)c3ccccc3C1=N2 | substrate | recombinant human CYP1A2 microsomes | 10 µM, 120 min, together with: NADPH | metabolised fraction | 8.4% |
